# Experimental data of several laboratories.
# Protocols differ between the studies behind these lines.
SMILES,test,system,setting,adverse event incidence
O=C1CCc2ccc(OCCCCN3CCN(c4cccc(Cl)c4Cl)CC3)cc2N1,item: Akathisia,"genotyped patients, CYP2D6 intermediate metabolizers","dose not given, long-acting oral or depot",8.2%
CC(=O)O[C@H]1C(=O)[C@@]2(C)[C@H]([C@H](OC(=O)c3ccccc3)[C@]3(O)C[C@H](OC(=O)[C@H](O)[C@@H](NC(=O)c4ccccc4)c4ccccc4)C(C)=C1C3(C)C)[C@]1(OC(C)=O)CO[C@@H]1C[C@@H]2O,item: peripheral neuropathy,patients with advanced solid tumours,"intravenous, dose not given, grade 1 and 2, possibly related to drug",11%
CCO[C@H]1CCN(Cc2c(OC)cc(C)c3[nH]ccc23)[C@H](c2ccc(C(=O)O)cc2)C1,item: abdominal distension,PNH patients with active haemolysis,"oral, 200 mg, extension phase",0%
CC(C)n1c(Nc2cccnc2)nc2cnc(Nc3ccc(N4CCN(C)CC4)cc3)nc21,item: Hypercalcemia,healthy male subjects,"oral, 100 mg, with: itraconazole",0%
Cc1c(Cl)c(C)[n+]([O-])c(Cl)c1-c1noc(-c2cc(O)c(O)c([N+](=O)[O-])c2)n1,item: Mild severity,healthy Caucasian subjects,"oral, 50 mg, 10 days",33.3%
Cc1ccc(Sc2ccccc2N2CCNCC2)c(C)c1,TEAE Acne,elderly men,"oral, 10 mg single dose",12.5%
Cc1c(C(=O)O)ccc2c3n(nc12)[C@@H]1[C@H](C3)N(CC2CC2)[C@@]2(C(=O)Nc3cc(Cl)ccc32)[C@H]1c1cccc(Cl)c1F,"phase Ia trial, item: Vomiting",cancer patients,"oral, dose not given",64%
FC(F)(F)c1ccc(CNc2ccc(Cc3c[nH]c4ncc(Cl)cc34)cn2)cn1,item: neutropenia,patients with advanced solid tumours,"oral, dose not given, grade 1 and 2, possibly related to drug",17%
NCCONC(=O)[C@@H]1CC[C@@H]2CN1C(=O)N2OS(=O)(=O)O,item: upper respiratory tract infection,healthy Chinese men,"intravenous, 1 g, treatment-emergent",25%
CC[C@H](C)CCCCC(=O)N[C@@H](CCN)C(=O)N[C@H](C(=O)N[C@@H](CCN)C(=O)N[C@H]1CCNC(=O)[C@H]([C@@H](C)O)NC(=O)[C@H](CCN)NC(=O)[C@H](CCN)NC(=O)[C@H](CC(C)C)NC(=O)[C@@H](Cc2ccccc2)NC(=O)[C@H](CCN)NC1=O)[C@@H](C)O,item: nervous system disorders,all subjects,"intravenous, 0.75 mg/kg",81.8%
C[C@H]1[C@H]2N(C(=O)CN(C)N2C(=O)NCc2ccccc2)[C@@H](Cc2ccc(OP(=O)(O)O)cc2)C(=O)N1Cc1cccc2cccnc12,item: Enterocolitis,HIV/HCV haemophilia cirrhosis,"concentration not given, phase I trial",20%

# Some of these lines once more:
SMILES,test,system,setting,adverse event incidence
Cc1ccc(Sc2ccccc2N2CCNCC2)c(C)c1,TEAE Acne,elderly men,"oral, 10 mg single dose",12.5%
